Measured values of several laboratories.
A part holds a random share of what one study measured. Changes are numbered by the printed parent chain.

Set 1
Target: TAR DNA-binding protein 43, full length, His tag (TARDBP, Homo sapiens, UniProt Q13148, residues 1-414)
Technique: RNA Bind-n-Seq
Molecule type: RNA
Sample: in vitro
Concentration: 20 nM
Notes: 6-mer, flanks averaged, single round
Added: 150 mM LiCl
Relative to: input library
Direction: higher = stronger binding
Quantity: 6-mer enrichment (R)
Strand = AUAUGC; value = 0.936
Strand = UCGGAC; value = 1.04
Strand = UAGACA; value = 0.864
Strand = UUCCUG; value = 0.925
Strand = CUUUGC; value = 0.976
Strand = GGCUGA; value = 1.02
Strand = UUAUGA; value = 1.01
Strand = UCCGAG; value = 0.901

Set 2
Target: ABI1, truncated, D143A, DHFR fusion (Arabidopsis thaliana, UniProt P49597)
Technique: DHFR PCA, dose-response
Sample: yeast
Notes: Hill fit, mean, not affinity
Added: (+)-ABA, dose series
Direction: lower = more sensitive
Quantity: ABA EC50
Starting sequence: PYL1, truncated, DHFR fusion (Arabidopsis thaliana, UniProt Q8VZS8); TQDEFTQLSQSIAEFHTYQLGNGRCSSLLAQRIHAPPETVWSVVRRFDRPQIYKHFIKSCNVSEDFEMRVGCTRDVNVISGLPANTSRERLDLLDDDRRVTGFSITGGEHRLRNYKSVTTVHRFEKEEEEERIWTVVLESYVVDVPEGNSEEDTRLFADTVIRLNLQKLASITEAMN
Change = R123P; value = 2.13 µM
Change = E130R; value = 3.32 µM
Change = H34E; value = 5.27 µM
Change = D92E; value = 8.42 µM
Change = S26I; value = 41.3 µM
Change = V43I; value = 4.06 µM
Change = T86M; value = 10.3 µM
Change = D95Y; value = 77.3 µM

Further values, each from its own experiment
Compound = COc1ccc(-c2[nH]ncc2C(=O)Nc2n[nH]c3cc(Br)ccc23)cc1; system = mouse, microsomes or S9; setting = 2 µM, 0.5 h; quantity = remaining compound; value = 9.08%
Compound = CC(C)n1cnc(-c2ccc(F)cc2)c1-c1ncc(C(=O)Nc2ccc(N3CCN(C)CC3)cc2)[nH]1; test = item: grade ≥3 events; system = patients with idiopathic pulmonary fibrosis; setting = 30 mg twice daily, trial, added: standard of care therapy; quantity = patients with serious adverse event; value = 25%

Some of these lines once more (further values, each from its own experiment):
Compound = COc1ccc(-c2[nH]ncc2C(=O)Nc2n[nH]c3cc(Br)ccc23)cc1; system = mouse, microsomes or S9; setting = 2 µM, 0.5 h; quantity = remaining compound; value = 9.08%
